{"data": "Measurements pooled from the literature", "note": "Protocols differ between the studies behind these lines. Numbers after ± are the reported error."}
{"SMILES": "CC[C@H](C)[C@@H]1NC(=O)[C@H](Cc2c[nH]c3ccccc23)NC(=O)[C@H]([C@@H](C)O)NC(=O)[C@H]([C@@H](C)CC)NC(=O)[C@H](CCSC)NC(=O)CCCC(=O)NCCCC[C@@H](C(N)=O)NC(=O)[C@H](CO)NC(=O)[C@@H]2CCCN2C(=O)[C@H](CO)NC(=O)[C@H]([C@@H](C)CC)NC(=O)[C@H](Cc2ccccc2)NC(=O)[C@H](CC(=O)O)NC1=O", "test system": "human serum", "scale": "baseline: cyclic over linear peptide", "quantity": "serum half-life", "result": "20 fold"}
{"SMILES": "CC[C@H](C)[C@H](NC(=O)[C@H](CCCCN)NC(=O)CNC(=O)[C@H](CC(C)C)NC(=O)[C@@H](NC(=O)[C@H](C)NC(=O)[C@H](CCCCN)NC(=O)CNC(=O)[C@H](C)NC(=O)CNC(=O)[C@H](CCCCN)NC(=O)[C@H](CCSC)NC(=O)[C@H](CCCCN)NC(=O)[C@@H](NC(=O)[C@H](Cc1c[nH]c2ccccc12)NC(=O)[C@H](CC(C)C)NC(=O)[C@H](CCCCN)NC(=O)[C@H](CCCCN)NC(=O)[C@H](CC(C)C)NC(=O)[C@@H](N)CC(C)C)[C@@H](C)O)C(C)C)C(=O)N[C@@H](CCCCN)C(=O)NCC(=O)N[C@@H](CC(C)C)C(=O)N[C@@H](CC(C)C)C(=O)O", "test": "acrylamide quenching", "test system": "DOPC vesicles, 250 µM lipid", "setting": "2 µM, together with: acrylamide", "quantity": "Stern-Volmer constant", "result": "1.44 ± 0.13 M⁻¹"}
{"SMILES": "CC[C@H](C)[C@H](NC(=O)[C@H](CCC(=O)O)NC(=O)[C@H](CCC(=O)O)NC(=O)[C@H](Cc1ccccc1)NC(=O)[C@H](CC(=O)O)NC(=O)CNC(=O)[C@H](CC(N)=O)NC(=O)CNC(=O)CNC(=O)CNC(=O)CNC(=O)[C@@H]1CCCN1C(=O)[C@H](CCCNC(=N)N)NC(=O)[C@@H]1CCCN1C(=O)[C@H](N)Cc1ccccc1)C(=O)N1CCC[C@H]1C(=O)N[C@@H](CCC(=O)O)C(=O)N[C@@H](CCC(=O)O)C(=O)N[C@@H](Cc1ccc(O)cc1)C(=O)N[C@@H](CC(C)C)C(=O)O", "test": "LC-MS/MS", "test system": "human plasma", "setting": "75 days, -80 °C, stability, nominal 240.0 ng/mL", "quantity": "concentration", "result": "239 ± 9.8 ng/mL"}
{"SMILES": "C[C@@H](O)[C@H](NC(=O)[C@H](CCCCN)NC(=O)[C@H](Cc1c[nH]c2ccccc12)NC(=O)CN)C(=O)N[C@@H](CCCNC(=N)N)C(=O)NC(C)(C)C(=O)N[C@@H](CCCNC(=N)N)C(=O)NC(C)(C)C(=O)N[C@H](C(=O)N[C@@H](CO)C(=O)N[C@@H](Cc1c[nH]cn1)C(=O)N[C@@H](Cc1ccc(O)cc1)C(=O)NCC(=O)O)[C@@H](C)O", "test system": "C57BL/6 mouse, blood", "setting": "intravenous, 50 mg/kg, 10 h", "scale": "baseline: leukocytes", "quantity": "monocytes", "result": "3 to 5%"}
{"SMILES": "CN(C)c1ccc(C(=O)NCCCCN2CCN(c3ccccc3O[11CH3])CC2)cc1", "test system": "male Sprague Dawley rat, kidney", "setting": "iv, 5 min", "scale": "baseline: untreated", "quantity": "tissue uptake", "result": "2.69 ± 0.33 %ID/g"}
{"SMILES": "CC[C@H](C)C(=O)N1CCC(NC(=O)Nc2ccc(OC(F)(F)F)c(F)c2)CC1", "test system": "healthy volunteers", "setting": "oral, 8 mg, fasted", "quantity": "subjects with adverse events", "result": "7.7%"}
{"SMILES": "CCCC[C@H](NC(=O)[C@H](Cc1c[nH]c2ccccc12)NC(=O)CNC(=O)[C@H](Cc1ccc(O)cc1)NC(=O)[C@H](C)NC(=O)[C@H](CCC(=O)O)NC(=O)[C@H](Cc1c[nH]cn1)NC(=O)[C@H](Cc1c[nH]cn1)NC(=O)[C@H](Cc1c[nH]cn1)NC(=O)[C@H](Cc1c[nH]cn1)NC(=O)[C@H](Cc1c[nH]cn1)NC(=O)[C@H](Cc1c[nH]cn1)NC(=O)CN1CCN(CC(=O)O)CCN(CC(=O)O)CCN(CC(=O)O)CC1)C(=O)N[C@@H](CC(=O)O)C(=O)N[C@@H](Cc1ccccc1)C(N)=O", "test system": "MF1 nude mouse, male, CA20948 xenograft", "setting": "intravenous, 0.2 µg, 4 h, 111In-labelled", "scale": "baseline: tumour over kidney", "quantity": "tumour-to-kidney ratio", "result": 0.16}
{"SMILES": "COC(=O)C[C@](O)(CCCC(C)(C)OC(C)=O)C(=O)O[C@@H]1C(OC)=C[C@]23CCCN2CCc2cc4c(cc2[C@H]13)OCO4", "test system": "CD1 mouse, stomach", "setting": "subcutaneous, 1 mg/kg, 0.5 h", "quantity": "tissue concentration", "result": "297 ng/mL"}
{"SMILES": "CC(C)C[C@@H](NC(=O)[C@@H](CCCNC(=N)N)NC(=O)[C@@H](Cc1c[nH]cn1)NC(=O)[C@@H](Cc1c[nH]c2ccccc12)NC(=O)[C@@H](Cc1c[nH]cn1)NC(=O)[C@@H](Cc1ccccc1)NC(=O)[C@H](NC(=O)[C@@H](Cc1ccc(O)cc1)NC(=O)CNC(=O)CNC(=O)CCOCCOCCOCCNC(=O)CN1CCN(CC(=O)O)CCN(CC(=O)O)CC1)[C@H](C)O)C(=O)N[C@H](CC(N)=O)C(=O)N1CCC[C@@H]1C(=O)O [gallium-68 labelled]", "test": "PET", "test system": "human, right lung primary tumour", "quantity": "SUVmax", "result": "4.82 SUV"}
{"note": "Some of these lines once more:"}
{"SMILES": "CC[C@H](C)[C@@H]1NC(=O)[C@H](Cc2c[nH]c3ccccc23)NC(=O)[C@H]([C@@H](C)O)NC(=O)[C@H]([C@@H](C)CC)NC(=O)[C@H](CCSC)NC(=O)CCCC(=O)NCCCC[C@@H](C(N)=O)NC(=O)[C@H](CO)NC(=O)[C@@H]2CCCN2C(=O)[C@H](CO)NC(=O)[C@H]([C@@H](C)CC)NC(=O)[C@H](Cc2ccccc2)NC(=O)[C@H](CC(=O)O)NC1=O", "test system": "human serum", "scale": "baseline: cyclic over linear peptide", "quantity": "serum half-life", "result": "20 fold"}
